Results of several laboratories.
Parts stem from different laboratories: compare values within a part only.

Sample 1
Target: Histone acetyltransferase KAT6A, both winged helices, GST fusion (KAT6A, Homo sapiens, UniProt Q92794, residues 1-181)
Technique: protein binding microarray
Form: double-stranded DNA, one strand shown
Matrix: in vitro
Concentration: not given
Setting: 8-mer, flanks averaged, mean of 2 arrays, mostly near background
Reference: not given
Direction: higher = stronger binding
Construct (chain): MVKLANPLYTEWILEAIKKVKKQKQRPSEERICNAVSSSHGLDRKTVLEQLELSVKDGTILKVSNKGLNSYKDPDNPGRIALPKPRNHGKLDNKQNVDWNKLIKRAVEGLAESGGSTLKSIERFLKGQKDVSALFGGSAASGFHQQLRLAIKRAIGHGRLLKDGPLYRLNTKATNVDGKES
With `GAGGACCC` the E-score was -0.0257.
`CGAACCCA` gave an E-score of -0.00237.
`CATAATCG` has an E-score of 0.0348.
`ACGTGACA` has an E-score of -0.0406.
With `CTTGCGGA` the E-score was 0.103.
For `CACTTAAA`, the E-score was -0.163.
`GACACGCC` gave an E-score of 0.123.
`CAGTACTC` has an E-score of -0.207.
For `GTATTGAC`, the E-score was 0.0862.
For `AGCAGCCC`, the E-score was -0.0682.
`TATGCTGA` has an E-score of -0.066.
For `AAGCGATC`, the E-score was 0.132.
With `AATACAGA` the E-score was -0.0798.
`ACATAAAA` gave an E-score of -0.137.
With `CGGCTTAG` the E-score was 0.21.
The E-score of `AGTTCAAG` is reported as -0.0689.
`ATAGCTTA` gave an E-score of -0.0383.
With `ACCAGTAA` the E-score was -0.0787.
The E-score of `TGAGCCAA` is reported as -0.173.
For `GATTCCTA`, the E-score was -0.017.
`CTATCTGC` has an E-score of -0.0447.

Sample 2
Target: RNA binding protein fox-1 homolog 2, RRM domain, GST-SBP tag (RBFOX2, Homo sapiens, UniProt O43251-10, residues 100-194)
Technique: RNA Bind-n-Seq
Form: RNA
Matrix: in vitro
Concentration: 365 nM
Setting: natural RNA segment, single round, ends assumed
Reference: no-protein control
Direction: higher = stronger binding
All sequences stand within: GGGAGUUCUACAGUCCGACGAUC … UGGAAUUCUCGGGUGCCAA
Target sequence (chain): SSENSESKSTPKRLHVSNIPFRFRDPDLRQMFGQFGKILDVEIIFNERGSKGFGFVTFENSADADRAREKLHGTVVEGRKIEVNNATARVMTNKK
`GUCAACAGGAGAGAAAGGGCCCGGCAACCCUCUGGCCCUAACCUGCUCUAGCCUGUACAUCCCACAUCCUCCGUCCGUCUGUCCAUCCAGGGUUUGUCUGUCCUGAAAGU` — result for “RBNS enrichment (R)”: 0.444.
`GACCACGGUUCUGAGCAAGUCUGCACAACAGCACCAAAAGGAGACCCCGAGGCCCAAAGAUAAACUGCUACAAUGCUCCAGAACAAUCUUUUCUCUCCUCCCCAGAGGCC` — result for “RBNS enrichment (R)”: 0.408.
For `ACAGUGCAGCAGUGGGUGUGGCCUGACUACAUGUGCUGUUCCAGCCCUGGGUGCCCACUGACACCGACCCCCAGGCAGAGGCCUUUGUCUUCAGCACUCCUGAGAAGUUG`, “RBNS enrichment (R)” read 0.339.
`AUUGGGAUUUCCCUCCAAACCAAACUGUCCUUUAAGGGGCAGCCUCCUCUUUUACUAACUCCACCCUUUCUCAUCUCUGGGACCCAGCAGGGACCUGGAGAGGCCAACAG` — result for “RBNS enrichment (R)”: 0.335.
`AGGGAGUCCCCUCUUAGGACAGGCACUGCCCAGCAGCAAGGGCAGCAGAGUUGGGUGCUAAGAUCCUGAGGAGCUCGAGGUUUCGAGCUGGCUUUAGACAUUGGUGGGAC`: “RBNS enrichment (R)” 0.665.
Under “RBNS enrichment (R)”, `CCAGUGGCGUGGCCUCUGCCUCUAAGCGCUGAGCAUUGGGCCCCUUCCCCACCAGACCUUUGUAGCUCCUCCAGCCUCUGCAGAGACUCCCUUCACCUCGCACUUACUGC` is recorded as 0.729.
For `CAAAUAUCCUAAAAUAGGAAAUACUUGAACGUUUUAAUGAGAAAUUUCUAUGGUUGAAAUUCAUAGCCUUUCACUAUAGGAAAUGUUAAGAAAAAUUUAAACAGUUUAAG`, “RBNS enrichment (R)” read 0.627.
`UGUGGUCUGACUCUAUGAUCGAUCACAGUGACUUAGAUUCAGGAAAGAACAUUAACGUCACAAGUUCUAAGUAGUUUUCACAGCAAAGAAUAUUUGAUAAUGGUUGCACU`: “RBNS enrichment (R)” 0.388.

Sample 3
Target: RING finger protein unkempt homolog, zinc fingers 1-6, GST-SBP tag (UNK, Homo sapiens, UniProt Q9C0B0, residues 30-357)
UniProt Q9C0B0, sequence (30-357, looked up): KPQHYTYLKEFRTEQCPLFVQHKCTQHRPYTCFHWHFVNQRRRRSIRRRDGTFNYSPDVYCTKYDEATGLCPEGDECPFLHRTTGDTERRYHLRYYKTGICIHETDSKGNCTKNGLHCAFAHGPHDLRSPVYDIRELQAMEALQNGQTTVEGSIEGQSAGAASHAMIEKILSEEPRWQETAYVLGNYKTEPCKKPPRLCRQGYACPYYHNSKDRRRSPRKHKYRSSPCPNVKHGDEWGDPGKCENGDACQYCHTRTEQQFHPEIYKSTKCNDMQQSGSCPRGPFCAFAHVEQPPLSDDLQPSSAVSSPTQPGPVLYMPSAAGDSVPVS
Technique: RNA Bind-n-Seq
Form: RNA
Matrix: in vitro
Concentration: not given
Setting: RNA with constant flanks, human-mouse chimeric sites, ends assumed
Reference: input RNA pool
Direction: higher = stronger binding
All sequences stand within: GGGAGUUCUACAGUCCGACGAUC … CAACAGAGGAUUGAGCAUCA
For `GCCACCAAUUCCAGCCAACAUGACCCUUGCUGCCUACAAAGAGAAGAUGAAGGAGCUCCCGCUGGUGUCCUUGUUCUGCUCUUGCUUCCUGGCCGAUCCCCUGAAUAAGUCGUCCUACAA`, the bound/input enrichment was 0.293 ratio.
`AAAGAACUUGCUGAUGAUGAAGAUGAGGAAGACAAUGAUGAUGUUGAACCCAUUUCUGAAUUUCGAUUUGUGCCCAGUGAUAAGUCAGCAUUGGAGGCAAUGUUCACAGCAAUGUGUGAG` has a bound/input enrichment of 0.301 ratio.
For `GUGACAGGUGUUAAGAUUUACCCUCAGCAAAGAAGUGCAGUAGUCACCAUAAUUCCAUCUGUGGUGAGUGCCAGUCAGAUUGUGGAGCUGGUCCCAGACCUCAGUUUAGACAUGGGAACU`, the bound/input enrichment was 0.213 ratio.
The bound/input enrichment of `CUGGCCUUCUGAGCAUCAGGGGCCUCCUUUCGUAUAGUCACUGCUUCUGCAUCAGAUAUUUUUAGCUGCAACUCCCUACUGGGUGGGGCACCCAUUUCAGGCAGAAGGUUUUGGUACCCU` is reported as 0.438 ratio.
`CUAAUCCCCUUUACUGCUCCCCCACUUCUCAUGGUAAUAACAAAGUCUUAUAUCCCCGUCCUAGCUUUCACUCAGAUGGCUUAUGGAGCCGGUUUCCUAUCUUUCUUGGGAGGGAUCAGA` gave a bound/input enrichment of 0.536 ratio.
`CCUGCUCAGAUCACCAUGAAAGUAAUCCAAGGCUUGUAUAGUGGGGUCACCACAGUGGAACUAGAUACCCUGGCUGCUGAGACAGCCGCGACCUUGACCACGAAGCACCCUGACUAUGCC` has a bound/input enrichment of 0.174 ratio.
`ACUCUUGACUCUUUCCAUUCUCGUCCCUUCCCUCUUGAUAUUCAAGGCCAUGAAUCCCAAAAUAGCUGUCUUAGUGGCUAGCACCCAAACAGAGGUGGAAUAAAUCCACCCCAGUGUCUC` gave a bound/input enrichment of 0.791 ratio.
`UCCCAAAUCCAGCAGCUAGAAGGAGCCAAUUGUUUGUCACUCCACACACAGGGAAGGCGAUAACAUUGUACAUUGGUUUACAUUUUUUCCCCCUGUGGAUUUUUCUAGAGGUCAUAGUGC` has a bound/input enrichment of 0.39 ratio.

Sample 4
Target: Interferon regulatory factor 7, full length, phosphomimetic (IRF7, Homo sapiens, UniProt Q92985, residues 1-503, S101K/S471D/S472D/S475D/S476D/S477D/S483D/S484D/S487D)
UniProt Q92985, sequence (whole entry, unmodified, looked up): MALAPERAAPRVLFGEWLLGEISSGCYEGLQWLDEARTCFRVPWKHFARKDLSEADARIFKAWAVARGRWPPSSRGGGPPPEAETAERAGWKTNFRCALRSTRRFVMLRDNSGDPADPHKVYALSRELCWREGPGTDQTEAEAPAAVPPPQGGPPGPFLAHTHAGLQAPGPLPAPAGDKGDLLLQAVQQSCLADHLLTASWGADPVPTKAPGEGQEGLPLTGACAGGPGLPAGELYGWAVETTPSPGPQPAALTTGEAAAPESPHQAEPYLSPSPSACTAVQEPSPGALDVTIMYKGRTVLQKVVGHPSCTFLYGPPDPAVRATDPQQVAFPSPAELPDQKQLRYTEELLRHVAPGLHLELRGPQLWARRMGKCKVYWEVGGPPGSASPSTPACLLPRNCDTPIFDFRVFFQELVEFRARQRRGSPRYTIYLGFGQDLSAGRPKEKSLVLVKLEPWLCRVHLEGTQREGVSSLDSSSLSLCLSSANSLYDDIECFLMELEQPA
Technique: protein-binding microarray
Form: double-stranded DNA, one strand shown
Matrix: in vitro
Concentration: 250 nM
Setting: 60-bp whole probe
Together with: salmon DNA 0.4 mg/ml
Reference: random background probes
Direction: higher = stronger binding
All sequences stand within: GCCTAGCAC … GTCTTGATTCGCTTGACGCTGCTG
For `GACGAACTGAGACGGGAGACGTGCTAG`, the log fluorescence was -0.386 z-score.
`TTAGGTTTCGGTTCCGGTTAGTGCTAG` has a log fluorescence of 12.4 z-score.
`GACGATATCAGACCGGAGACGTGCTAG` gave a log fluorescence of -0.196 z-score.
`TAAGGTTTCGGACTGGGTTAGTGCTAG` gave a log fluorescence of 4.27 z-score.
The log fluorescence of `GACGGTCCCGGTCTCGGGACGTGCTAG` is reported as 0.354 z-score.
`TACGGACTGCTTTTCCTGACGTGCTAG` has a log fluorescence of 0.101 z-score.
With `ATTTTTATCAAATGTGGGATTGTGCTA` the log fluorescence was 0.415 z-score.
`TTTTTTTTTTTTTTTTTTACGTGCTAG` has a log fluorescence of 0.489 z-score.
The log fluorescence of `GACGGTTTCGAGTATCGGGACGTGCTA` is reported as 6.41 z-score.
For `TTAGGATTGCTTATCCTTTAGTGCTAG`, the log fluorescence was -0.367 z-score.
`TTAGGTTTCGATTTCGGTTAGTGCTAG` gave a log fluorescence of 13.7 z-score.
`GACGGTTTCCTTTCCCTGACGTGCTAG` has a log fluorescence of 4.77 z-score.
The log fluorescence of `GACGGTTTCGGTATCGGGACGTGCTAG` is reported as 10.5 z-score.
The log fluorescence of `CACGATTTCGGGTTTCGAGACGTGCTA` is reported as 4.49 z-score.
With `TTAGAAATCGGGACTGGATTAGTGCTA` the log fluorescence was -0.118 z-score.
For `TTAGAACGGAGTTTCGATTAGTGCTAG`, the log fluorescence was 8.11 z-score.
`TTAGAACTGGGGTATCCATTAGTGCTA` gave a log fluorescence of -0.525 z-score.
`TTAGATATCAGGTATCGATTAGTGCTA` has a log fluorescence of 0.62 z-score.
For `GGCGATTTCAGTATCGAGACGTGCTAG`, the log fluorescence was -0.199 z-score.

Excerpt of the above (sample 1):
`ACGTGACA` has an E-score of -0.0406.
With `CTTGCGGA` the E-score was 0.103.
For `CACTTAAA`, the E-score was -0.163.
`GACACGCC` gave an E-score of 0.123.
`CAGTACTC` has an E-score of -0.207.
For `GTATTGAC`, the E-score was 0.0862.
